# Measurements pooled from the literature.
# Protocols differ between the studies behind these lines. Numbers after ± are the reported error.
# SIRT5: NAD-dependent protein deacylase sirtuin-5, mitochondrial (SIRT5, Homo sapiens, UniProt Q9NXA8)
# Chain of UniProt Q9NXA8 (whole entry, looked up): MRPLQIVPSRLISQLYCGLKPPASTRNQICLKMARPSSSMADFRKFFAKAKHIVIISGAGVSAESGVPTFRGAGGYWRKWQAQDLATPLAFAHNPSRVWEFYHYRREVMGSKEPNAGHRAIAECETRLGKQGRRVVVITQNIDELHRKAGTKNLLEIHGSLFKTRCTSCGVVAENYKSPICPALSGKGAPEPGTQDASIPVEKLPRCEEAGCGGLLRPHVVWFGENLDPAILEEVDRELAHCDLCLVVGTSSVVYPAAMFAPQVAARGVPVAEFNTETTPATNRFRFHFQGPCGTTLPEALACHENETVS
# CYP2C9: Cytochrome P450 2C9 (CYP2C9, Homo sapiens, UniProt P11712)
# Chain of UniProt P11712 (whole entry, looked up): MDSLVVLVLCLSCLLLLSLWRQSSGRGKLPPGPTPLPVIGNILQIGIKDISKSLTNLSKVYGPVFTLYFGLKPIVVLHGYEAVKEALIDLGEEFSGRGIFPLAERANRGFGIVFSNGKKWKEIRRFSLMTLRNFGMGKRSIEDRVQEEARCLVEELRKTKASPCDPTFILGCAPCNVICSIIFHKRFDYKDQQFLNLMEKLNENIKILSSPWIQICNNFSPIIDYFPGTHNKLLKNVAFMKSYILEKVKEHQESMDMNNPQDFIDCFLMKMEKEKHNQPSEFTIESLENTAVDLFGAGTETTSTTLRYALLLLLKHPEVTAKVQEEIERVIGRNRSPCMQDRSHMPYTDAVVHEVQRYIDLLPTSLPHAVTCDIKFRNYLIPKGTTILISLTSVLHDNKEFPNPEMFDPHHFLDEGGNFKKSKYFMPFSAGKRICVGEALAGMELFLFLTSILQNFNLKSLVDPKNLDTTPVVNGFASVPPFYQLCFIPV
# SIRT2: NAD-dependent protein deacetylase sirtuin-2 (SIRT2, Homo sapiens, UniProt Q8IXJ6)
# Chain of UniProt Q8IXJ6 (whole entry, looked up): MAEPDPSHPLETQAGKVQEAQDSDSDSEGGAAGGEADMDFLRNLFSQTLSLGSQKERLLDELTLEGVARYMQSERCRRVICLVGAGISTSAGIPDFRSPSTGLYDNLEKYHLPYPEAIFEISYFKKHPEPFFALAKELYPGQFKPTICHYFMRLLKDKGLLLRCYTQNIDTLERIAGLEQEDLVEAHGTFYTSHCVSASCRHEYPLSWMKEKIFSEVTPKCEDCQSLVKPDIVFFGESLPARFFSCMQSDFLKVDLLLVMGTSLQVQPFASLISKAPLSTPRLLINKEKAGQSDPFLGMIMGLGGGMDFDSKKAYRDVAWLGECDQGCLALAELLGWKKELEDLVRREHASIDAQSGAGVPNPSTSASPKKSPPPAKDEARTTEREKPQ
# blaNDM-1: Metallo-beta-lactamase type 2 (blaNDM-1, Klebsiella pneumoniae, UniProt C7C422)
# Chain of UniProt C7C422 (whole entry, looked up): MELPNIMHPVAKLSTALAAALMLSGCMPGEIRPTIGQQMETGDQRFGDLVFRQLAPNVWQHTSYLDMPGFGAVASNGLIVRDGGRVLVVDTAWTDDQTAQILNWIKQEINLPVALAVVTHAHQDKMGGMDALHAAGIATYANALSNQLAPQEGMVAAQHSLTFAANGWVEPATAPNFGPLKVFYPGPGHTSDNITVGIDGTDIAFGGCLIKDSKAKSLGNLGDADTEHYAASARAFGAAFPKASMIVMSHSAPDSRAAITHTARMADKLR
# lasR: Transcriptional activator protein LasR (lasR, Pseudomonas aeruginosa, UniProt P25084)
# Chain of UniProt P25084 (whole entry, looked up): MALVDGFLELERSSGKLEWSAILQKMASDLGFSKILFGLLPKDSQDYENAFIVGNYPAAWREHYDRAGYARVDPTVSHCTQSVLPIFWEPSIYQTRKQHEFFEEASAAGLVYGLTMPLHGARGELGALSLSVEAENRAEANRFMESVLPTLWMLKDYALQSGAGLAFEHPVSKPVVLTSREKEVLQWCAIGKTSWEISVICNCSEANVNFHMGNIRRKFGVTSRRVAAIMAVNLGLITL
# Formate-nitrite transporter: Formate-nitrite transporter (Plasmodium falciparum, UniProt O77389)
# Chain of UniProt O77389 (whole entry, looked up): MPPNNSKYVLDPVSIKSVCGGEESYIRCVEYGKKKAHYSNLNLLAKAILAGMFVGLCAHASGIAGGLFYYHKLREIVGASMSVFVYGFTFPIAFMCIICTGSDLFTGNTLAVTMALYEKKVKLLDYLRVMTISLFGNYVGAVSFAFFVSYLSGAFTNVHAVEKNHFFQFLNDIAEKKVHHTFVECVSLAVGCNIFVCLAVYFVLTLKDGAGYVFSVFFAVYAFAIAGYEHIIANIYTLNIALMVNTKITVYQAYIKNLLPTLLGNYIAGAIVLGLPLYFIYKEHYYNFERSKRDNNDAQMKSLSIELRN
# Chain of UniProt P23141 (whole entry, looked up): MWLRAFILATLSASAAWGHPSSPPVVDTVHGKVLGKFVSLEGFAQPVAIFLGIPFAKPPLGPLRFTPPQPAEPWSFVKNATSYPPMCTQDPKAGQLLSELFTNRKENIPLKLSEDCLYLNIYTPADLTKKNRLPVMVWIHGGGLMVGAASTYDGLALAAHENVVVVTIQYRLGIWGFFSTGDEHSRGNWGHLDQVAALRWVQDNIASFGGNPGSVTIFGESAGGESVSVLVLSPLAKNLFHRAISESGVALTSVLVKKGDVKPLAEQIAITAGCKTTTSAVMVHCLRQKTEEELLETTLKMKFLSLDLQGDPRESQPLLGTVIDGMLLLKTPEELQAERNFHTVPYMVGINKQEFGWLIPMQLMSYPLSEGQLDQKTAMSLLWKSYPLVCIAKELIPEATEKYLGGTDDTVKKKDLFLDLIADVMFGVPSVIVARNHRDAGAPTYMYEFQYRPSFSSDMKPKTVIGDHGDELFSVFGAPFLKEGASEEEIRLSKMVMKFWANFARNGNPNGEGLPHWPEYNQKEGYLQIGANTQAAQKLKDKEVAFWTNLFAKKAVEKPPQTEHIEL
# Chain of UniProt Q2NL67 (whole entry, looked up): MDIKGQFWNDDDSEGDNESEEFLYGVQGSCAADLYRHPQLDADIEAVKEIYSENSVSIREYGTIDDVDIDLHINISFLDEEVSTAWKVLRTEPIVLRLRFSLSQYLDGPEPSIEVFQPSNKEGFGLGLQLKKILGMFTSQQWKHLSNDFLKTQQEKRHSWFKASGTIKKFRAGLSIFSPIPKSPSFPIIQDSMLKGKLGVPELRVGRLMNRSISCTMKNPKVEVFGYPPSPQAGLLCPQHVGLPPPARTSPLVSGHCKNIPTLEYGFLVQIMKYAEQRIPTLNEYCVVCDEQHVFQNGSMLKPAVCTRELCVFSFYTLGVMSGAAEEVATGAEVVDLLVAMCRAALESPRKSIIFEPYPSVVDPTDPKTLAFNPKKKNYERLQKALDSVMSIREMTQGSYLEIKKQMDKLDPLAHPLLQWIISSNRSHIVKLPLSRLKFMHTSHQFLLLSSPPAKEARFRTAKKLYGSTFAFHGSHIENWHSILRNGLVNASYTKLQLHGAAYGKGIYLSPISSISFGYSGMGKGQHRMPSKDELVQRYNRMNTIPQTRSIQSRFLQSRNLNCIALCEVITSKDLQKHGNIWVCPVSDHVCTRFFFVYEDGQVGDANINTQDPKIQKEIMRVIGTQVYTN
# Chain of UniProt Q2FDS6 (whole entry, looked up): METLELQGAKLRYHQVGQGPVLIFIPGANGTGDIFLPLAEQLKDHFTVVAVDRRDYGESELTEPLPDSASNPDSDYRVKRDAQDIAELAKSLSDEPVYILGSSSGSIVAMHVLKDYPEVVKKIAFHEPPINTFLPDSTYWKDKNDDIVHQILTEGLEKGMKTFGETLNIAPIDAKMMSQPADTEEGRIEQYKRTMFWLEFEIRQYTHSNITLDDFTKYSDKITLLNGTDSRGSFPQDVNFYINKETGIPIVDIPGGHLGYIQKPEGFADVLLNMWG
# Chain of UniProt Q9Y3R4 (whole entry, looked up): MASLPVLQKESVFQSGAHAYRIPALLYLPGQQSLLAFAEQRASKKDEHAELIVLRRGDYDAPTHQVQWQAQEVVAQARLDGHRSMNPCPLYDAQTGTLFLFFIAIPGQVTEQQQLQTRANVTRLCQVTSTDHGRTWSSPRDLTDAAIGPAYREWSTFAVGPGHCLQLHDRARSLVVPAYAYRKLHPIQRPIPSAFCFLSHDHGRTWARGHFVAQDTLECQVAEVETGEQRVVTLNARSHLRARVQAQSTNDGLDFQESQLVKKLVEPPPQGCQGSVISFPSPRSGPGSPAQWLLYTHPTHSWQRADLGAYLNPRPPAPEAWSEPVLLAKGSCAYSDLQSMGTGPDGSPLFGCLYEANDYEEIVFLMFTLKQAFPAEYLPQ
# Chain of UniProt P40261 (whole entry, looked up): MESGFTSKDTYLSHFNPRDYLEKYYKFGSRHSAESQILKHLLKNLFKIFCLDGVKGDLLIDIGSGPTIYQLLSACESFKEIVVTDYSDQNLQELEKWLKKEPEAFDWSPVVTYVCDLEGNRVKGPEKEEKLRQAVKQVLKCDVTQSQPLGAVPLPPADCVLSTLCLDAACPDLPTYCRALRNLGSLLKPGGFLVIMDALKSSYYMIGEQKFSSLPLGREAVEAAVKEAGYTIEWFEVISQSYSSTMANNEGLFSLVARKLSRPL
# Chain of UniProt P33261 (whole entry, looked up): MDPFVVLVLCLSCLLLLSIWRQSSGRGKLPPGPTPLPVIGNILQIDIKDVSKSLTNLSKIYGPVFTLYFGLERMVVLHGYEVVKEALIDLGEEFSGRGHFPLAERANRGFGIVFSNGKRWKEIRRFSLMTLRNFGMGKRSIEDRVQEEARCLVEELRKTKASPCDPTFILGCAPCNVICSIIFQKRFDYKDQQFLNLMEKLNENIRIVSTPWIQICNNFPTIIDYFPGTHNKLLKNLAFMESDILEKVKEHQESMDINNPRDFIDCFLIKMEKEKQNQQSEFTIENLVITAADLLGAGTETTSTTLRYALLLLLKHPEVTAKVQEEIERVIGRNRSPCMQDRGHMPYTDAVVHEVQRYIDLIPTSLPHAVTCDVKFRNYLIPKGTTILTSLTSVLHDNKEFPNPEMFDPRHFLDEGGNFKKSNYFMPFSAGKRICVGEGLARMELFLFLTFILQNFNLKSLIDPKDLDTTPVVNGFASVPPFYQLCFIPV
# Chain of UniProt P0A6M2 (whole entry, unmodified, looked up): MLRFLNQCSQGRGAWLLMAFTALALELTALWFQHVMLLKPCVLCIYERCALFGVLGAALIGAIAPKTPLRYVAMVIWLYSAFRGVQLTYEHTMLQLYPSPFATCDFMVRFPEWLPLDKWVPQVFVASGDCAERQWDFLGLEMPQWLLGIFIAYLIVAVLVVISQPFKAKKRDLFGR
Structure (SMILES),tested on,assay,system,setting,endpoint,value
Cc1ccc(N2CC3CC(C2)N3C)cc1C(=O)NC1(c2ccc3c4c(cccc24)C(=O)N3C)CC1,"Cytochrome P450 2C19 (CYP2C19, Homo sapiens, UniProt P33261)","enzyme activity, inhibitor",,,IC50,29.9 µM
O=C1NC2(CC2)COc2ncc(F)cc2[C@H]2COCCN2c2ccn3ncc1c3n2,,,"Sprague-Dawley rat, male, serum","oral, 20 mg/kg/day, end of recovery, 4-week subacute toxicity",serum total protein,58.9 ± 4.8 g/L
C#CCNC(=O)c1ccc(S(=O)(=O)N[C@@H](CCCCNC(=O)c2cncc(OS(=O)(=O)F)c2)C(=O)N[C@@H](Cc2c[nH]c3ccccc23)C(=O)NC2CCC2)cc1,SIRT5,"inhibitor, fluorogenic",,"0 h preincubation, His-tagged enzyme 150 nM, added: NAD+ 500 µM",IC50,100 ± 135 µM
CCCCCCCCCCCCCCCCCC(=O)NC[C@H]1CC[C@H](C(=O)N[C@@H](CCC(=O)NCCCOCCOCCOCCCNC(=O)COCC(=O)N[C@@H](Cc2ccc(O)cc2)C(=O)NC(C)(Cc2ccccc2)C(=O)N[C@@H](CC(C)C)C(=O)N[C@@H](CCCC)C(=O)N[C@@H](CCCNC(=N)N)C(=O)N2CCC[C@H]2C(=O)N[C@@H](CCCNC(=N)NC)C(=O)N[C@@H](CC(N)=O)C(N)=O)C(=O)O)CC1 (stereo partly drawn),"Neuromedin-U receptor 1 (Mus musculus, UniProt O55040)","ligand displacement, radioligand",,cell membranes,IC50,0.00047 µM
COc1cc(C[C@H](C)[C@H](C)Cc2ccc3c(c2)OCO3)ccc1O,"Liver carboxylesterase 1 (CES1, Homo sapiens, UniProt P23141)","enzyme activity, inhibitor",,,IC50,0.75 µM
CC(C)C[C@@H](N)C(=O)NCC(=O)N[C@H](C)C(=O)N[C@H](CO)C(=O)N[C@H](Cc1c[nH]c2ccccc12)C(=O)N[C@H](Cc1c[nH]cn1)C(=O)N[C@H](CCCNC(=N)N)C(=O)N1CCC[C@@H]1C(=O)N[C@H](CC(=O)O)C(=O)N[C@H](CCCCN)C(=O)N[C@H](CCCCN)C(=O)N[C@H](CCCNC(=N)N)C(=O)NCCCCCC(=O)N[C@@H](CCCCN)C(=O)N[C@@H](CCCNC(=N)N)C(=O)N[C@@H](CCCCN)C(=O)N[C@@H](CCC(N)=O)C(=O)N[C@@H](CCCNC(=N)N)C(=O)NCC(=O)N1CCC[C@H]1C(=O)NCC(=O)N[C@@H](CCCNC(=N)N)C(=O)N[C@@H](C)C(=O)N[C@@H](Cc1ccccc1)C(N)=O,"C-X-C chemokine receptor type 4 (CXCR4, Homo sapiens, UniProt P61073)","cell migration, antagonist",,,IC50,6.08 µM
O=C(c1cc(Cc2n[nH]c(=O)c3ccccc23)ccc1F)N1CC(CNC2CC2)C1,"Protein mono-ADP-ribosyltransferase PARP6 (PARP6, Homo sapiens, UniProt Q2NL67)","enzyme activity, inhibitor",,,IC50,> 10 µM
CC(C)C[C@H](NC(=O)[C@H]1O[C@@H]1C(=O)O)C(=O)NCCCCN=C(N)N,"Cathepsin S (CTSS, Homo sapiens, UniProt P25774)","enzyme activity, inhibitor",,,IC50,0.00386 µM
N=C(N)NCCC[C@H](NC(=O)[C@H](CCCCNC(=O)c1cncc(OS(=O)(=O)F)c1)NC(=O)CCC[P+](c1ccccc1)(c1ccccc1)c1ccccc1)C(=O)NC1CCC1,SIRT5,"inhibitor, fluorogenic",,"pre-incubation 16 h, added: NAD+ 500 µM",IC50,10.9 ± 0.2 µM
CCc1nnc(-c2c(OC)cc(-c3cnc4cc(-c5cnn(C)c5)ccn34)cc2OC)o1,CYP2C9,"enzyme activity, inhibitor",,,IC50,> 10 µM
CNC(=S)NCCCC[C@H](NS(=O)(=O)c1ccc(C(=O)NCc2cn(CCCNc3ccc([N+](=O)[O-])c4nonc34)nn2)cc1)C(=O)N[C@@H](CCCNC(=N)N)C(=O)N[C@@H](CC1CCCCC1)C(=O)N[C@H](CCCCN)C(=O)N[C@@H](CC1CCCCC1)C(=O)N[C@H](CCCNC(=N)N)C(=O)N[C@@H](CC1CCCCC1)C(N)=O,SIRT2,"enzyme activity, inhibitor, fluorescence",,,IC50,0.96 µM
CC[C@H](C)[C@@H]1NC(=O)[C@@H]2CCCN2C(=O)[C@@H](CS)NC(=O)[C@H](CC(C)C)NC(=O)[C@@H](CCCNC(=N)N)NC(=O)[C@@H]([C@H](C)O)NC(=O)[C@H](CCC(=O)O)NC(=O)[C@@H]2CCCN2C1=O,blaNDM-1,"enzyme activity, inhibitor, absorbance",,,IC50,9.21 µM
COC(=O)Cc1cc2c(cc1C(=O)c1cccc(Br)c1)OCO2,"Glutamate receptor 1 (Gria1, Rattus norvegicus, UniProt P19490)","glutamate-evoked current, inhibitor, whole-cell patch clamp","HEK293T, homomeric receptor",,IC50,5.37 µM
O=C(CCCOc1cccc(Br)c1)N[C@H]1CCSC1=O,lasR,"reporter gene, antagonist","Escherichia coli, JLD271 with LasR plasmid",added: OdDHL 2 nM,IC50,no inhibition
CSCC[C@H](NC(=O)[C@@H](NC(=O)[C@H](Cc1c[nH]cn1)NC(=O)CNC(=O)[C@H](Cc1c[nH]cn1)NC(=O)[C@@H]1CCCN1C(=O)[C@H](C)N)C(C)C)C(=O)N[C@H](C(=O)N[C@@H](CCC(=O)O)C(=O)N[C@@H](CC(C)C)C(=O)O)C(C)C,"HLA class I histocompatibility antigen, A alpha chain, allele A*26:01 (Homo sapiens, UniProt P04439)","peptide-MHC binding, radioligand competition binding",,,IC50,> 70 µM
NC(=O)c1ccc(N)nc1,"Nicotinamide N-methyltransferase (NNMT, Homo sapiens, UniProt P40261)","enzyme activity, inhibitor",,,IC50,6.31 µM
O=C(C=C(O)C(F)(F)C(F)(F)F)c1ccc(NC2CCC2)nc1,Formate-nitrite transporter,"L-lactate transport, inhibitor, fluorescence",yeast,"pH 6.8, added: L-lactate 1 mM",IC50,0.221 ± 0.028 µM
C#CCNC(=O)c1ccc(S(=O)(=O)N[C@@H](CCCCNC(C)=S)C(=O)N[C@@H](CCCNC(=N)N)C(=O)N[C@@H](CC2CCCCC2)C(=O)N[C@H](CCCCN)C(=O)N[C@@H](CC2CCCCC2)C(N)=O)cc1,SIRT2,"enzyme activity, inhibitor, fluorescence",,,IC50,1.62 µM
CC[C@H](C)[C@H](NC(=O)[C@H](CCC(=O)O)NC(=O)[C@H](C)NC(=O)[C@@H](NC(=O)[C@H](Cc1c[nH]cn1)NC(=O)[C@@H](NC(=O)[C@H](CCC(=O)O)NC(=O)[C@H](C)NC(=O)[C@H]1CCC[C@@H]1NC(=O)[C@H](CC(C)C)NC(=O)[C@H](Cc1c[nH]cn1)NC(=O)[C@H](Cc1c[nH]cn1)NC(=O)[C@H](CC(C)C)NC(=O)[C@H](Cc1ccccc1)NC(=O)[C@H](Cc1ccccc1)NC(=O)[C@H](CCCNC(=N)N)NC(=O)[C@H](CCCNC(=N)N)NC(=O)[C@H](CCCNC(=N)N)NC(=O)[C@H](CC(C)C)NC(=O)[C@H](CC(=O)O)NC(=O)[C@H](CCC(N)=O)NC(=O)[C@@H](NC(=O)[C@H](CO)NC(=O)[C@H](CCCCN)NC(=O)CNC(=O)[C@H](CCCCN)NC(=O)[C@H](CC(=O)O)NC(=O)[C@H](Cc1c[nH]cn1)NC(=O)[C@H](CC(C)C)NC(=O)[C@H](CC(C)C)NC(=O)[C@H](CCC(N)=O)NC(=O)[C@H](Cc1c[nH]cn1)NC(=O)[C@H](CCC(=O)O)NC(=O)[C@H](CO)NC(=O)[C@@H](NC(=O)[C@H](C)N)C(C)C)[C@@H](C)CC)[C@@H](C)CC)[C@@H](C)O)C(N)=O,"Parathyroid hormone/parathyroid hormone-related peptide receptor (PTH1R, Homo sapiens, UniProt Q03431)","ligand displacement, radioligand",,cell membranes,IC50,0.0151 µM
O=C(C=C(O)C(F)(F)C(F)(F)F)c1ccc(NC2CC2)nc1,Formate-nitrite transporter,"L-lactate transport, inhibitor, fluorescence",yeast,"pH 6.8, added: L-lactate 1 mM",IC50,0.121 ± 0.012 µM
O=P(O)(O)C(Nc1ccc(Cl)cc1)P(=O)(O)O,"polyphosphate kinase 2 (Cytophaga hutchinsonii, UniProt A0A6N4SMB5)","enzyme activity, inhibitor, HPLC",,"30 min, 37 °C, added: 0.04 mM ADP and 0.3 mM polyP",IC50,337 µM
O=C1C(Nc2ncccc2[N+](=O)[O-])CN1c1ccc(F)cc1 (stereo not drawn),"Uncharacterized hydrolase SAUSA300_2518 (Staphylococcus aureus, UniProt Q2FDS6)","enzyme activity, inhibitor",,,IC50,> 50 µM
CC(C)C[C@@H]1NC(=O)[C@@H]2CCCN2C(=O)[C@@H](CS)NC(=O)[C@H](Cc2ccc(O)cc2)NC(=O)[C@@H](CCCNC(=N)N)NC(=O)[C@@H]([C@H](C)O)NC(=O)[C@H](CCC(=O)O)NC(=O)[C@@H]2CCCN2C1=O,blaNDM-1,"enzyme activity, inhibitor, absorbance",,,IC50,18.8 µM
O=C(Nc1ccc(-c2ccccc2)cc1)N[C@H]1[C@H]([C@H](O)[C@H](O)CO)OC(C(=O)O)=C[C@@H]1O,"Sialidase-2 (Homo sapiens, UniProt Q9Y3R4)","enzyme activity, inhibitor",,,IC50,> 500 µM
O=C(C=C(O)C(F)(F)C(F)(F)F)c1ccoc1,Formate-nitrite transporter,"L-lactate transport, inhibitor, fluorescence",yeast,"pH 6.8, added: L-lactate 1 mM",IC50,0.019 ± 0.001 µM
C#CCNC(=O)c1ccc(S(=O)(=O)N[C@@H](CCCCNC(=O)c2cncc(OS(=O)(=O)F)c2)C(=O)N[C@@H](CCCNC(=N)N)C(=O)NC2CCC2)cc1,SIRT5,"inhibitor, fluorogenic",,"pre-incubation 24 h, added: NAD+ 500 µM",IC50,5 ± 1.9 µM
O=C(CN1CN(c2ccccc2)C2(CCN(C(=O)c3cnc4[nH]ncc4c3)CC2)C1=O)NCC(F)(F)F,CYP2C9,inhibitor,,,IC50,22 µM
CCCNc1ccc(C(=O)C=C(O)C(F)(F)C(F)(F)F)cn1,Formate-nitrite transporter,"L-lactate transport, inhibitor, fluorescence",yeast,"pH 6.8, added: L-lactate 1 mM",IC50,0.113 ± 0.031 µM
CCN(C)C(=O)Oc1ccccc1/C=C1\Cc2cc(OC)c(OC)cc2C1=O,"Prothrombin (F2, Homo sapiens, UniProt P00734)","enzyme activity, inhibitor",,,IC50,> 10 µM
CC(C)C[C@H]1NC(=O)[C@@H]2CCCN2C(=O)[C@H](C(C)C)NC(=O)[C@@H]2CCCN2C(=O)[C@@H](CS)NC(=O)[C@H](CCCCN)NC(=O)[C@H](CCCCN)NC(=O)[C@H](CC(=O)O)NC1=O,blaNDM-1,"enzyme activity, inhibitor, absorbance",,,IC50,12.3 µM
COCCCNc1ccc(C(=O)C=C(O)C(F)(F)C(F)(F)F)cn1,Formate-nitrite transporter,"L-lactate transport, inhibitor, fluorescence assay in yeast",,added: 1 mM L-lactate,IC50,0.059 µM
CCCCCC(=O)CC(=O)N[C@H]1CCOC1=O,lasR,"reporter gene, antagonist","Escherichia coli, JLD271 with LasR plasmid",added: OdDHL 0.5 nM,IC50,0.12 µM
Cc1ccc2c(n1)c(-c1cccc(S(C)(=O)=O)c1)c(C)n2C/C(F)=C/CN,"Amine oxidase [flavin-containing] A (MAOA, Homo sapiens, UniProt P21397)","enzyme activity, inhibitor, fluorescence",,,IC50,> 30 µM
CC(C)(C)C1CCC(c2cc3ccccc3s2)(N2CCCCC2)CC1 (stereo not drawn),"Uncharacterized protein (Trypanosoma brucei brucei, UniProt Q386Q8)","enzyme activity, inhibitor, coupled colorimetric",,added: E. coli pyrophosphatase coupling,IC50,78 µM
CCOc1c(Cl)cnn(-c2ccccc2)c1=O,"Disulfide bond formation protein B (Escherichia coli, UniProt P0A6M2, C49V/C8A)","enzyme activity, inhibitor",,,IC50,5.62 to 7.91 µM
O=C(C=C(O)C(F)(F)C(F)(F)F)c1cccc(O)c1,Formate-nitrite transporter,"L-lactate transport, inhibitor, fluorescence",yeast,"pH 6.8, added: L-lactate 1 mM",IC50,0.312 ± 0.049 µM
O=C(NCc1cc(Br)cc(Br)c1OC(=O)c1ccccc1[N+](=O)[O-])c1ccccc1Cl,lasR,"plasI-LVAgfp reporter, antagonist",PAO-JP2 pump-active,added: OdDHL 150 nM,IC50,no inhibition
CC(C)(C)C(=O)OCOP(=O)(OCOC(=O)C(C)(C)C)C1CCCN(O)C1=O (stereo not drawn),SK-MEL-5,,,,log LC50,-4.92 log M
N[C@H](C(=O)N1CCCC1)C1CCN(c2nccc3c(-c4ncc(Cl)cc4Cl)cccc23)CC1,"Protein-arginine deiminase type-2 (PADI2, Homo sapiens, UniProt Q9Y2J8)","enzyme activity, inhibitor, GDH-coupled",,added: CaCl2 1.5 mM,IC50,3.09 µM

# For quick reference, copied from above:
Structure (SMILES),tested on,assay,system,setting,endpoint,value
O=C1C(Nc2ncccc2[N+](=O)[O-])CN1c1ccc(F)cc1 (stereo not drawn),"Uncharacterized hydrolase SAUSA300_2518 (Staphylococcus aureus, UniProt Q2FDS6)","enzyme activity, inhibitor",,,IC50,> 50 µM
CC(C)C[C@@H]1NC(=O)[C@@H]2CCCN2C(=O)[C@@H](CS)NC(=O)[C@H](Cc2ccc(O)cc2)NC(=O)[C@@H](CCCNC(=N)N)NC(=O)[C@@H]([C@H](C)O)NC(=O)[C@H](CCC(=O)O)NC(=O)[C@@H]2CCCN2C1=O,blaNDM-1,"enzyme activity, inhibitor, absorbance",,,IC50,18.8 µM
O=C(Nc1ccc(-c2ccccc2)cc1)N[C@H]1[C@H]([C@H](O)[C@H](O)CO)OC(C(=O)O)=C[C@@H]1O,"Sialidase-2 (Homo sapiens, UniProt Q9Y3R4)","enzyme activity, inhibitor",,,IC50,> 500 µM
O=C(C=C(O)C(F)(F)C(F)(F)F)c1ccoc1,Formate-nitrite transporter,"L-lactate transport, inhibitor, fluorescence",yeast,"pH 6.8, added: L-lactate 1 mM",IC50,0.019 ± 0.001 µM
